# Published values pooled from the literature.
# A part holds a random share of what one study measured. Substitutions count along the parent as printed.

# Series 1
# Target: RING finger protein unkempt homolog, zinc fingers 1-6, GST-SBP tag (UNK, Homo sapiens, UniProt Q9C0B0, residues 30-357)
# Method: RNA Bind-n-Seq
# Molecule type: RNA
# Sample: in vitro
# Concentration: not given
# Setting: RNA with constant flanks, ends assumed
# Reference: input RNA pool
# Direction: higher = stronger binding
# Constant ends, left off below: GGGAGUUCUACAGUCCGACGAUC … CAACAGAGGAUUGAGCAUCA
# Target sequence (chain): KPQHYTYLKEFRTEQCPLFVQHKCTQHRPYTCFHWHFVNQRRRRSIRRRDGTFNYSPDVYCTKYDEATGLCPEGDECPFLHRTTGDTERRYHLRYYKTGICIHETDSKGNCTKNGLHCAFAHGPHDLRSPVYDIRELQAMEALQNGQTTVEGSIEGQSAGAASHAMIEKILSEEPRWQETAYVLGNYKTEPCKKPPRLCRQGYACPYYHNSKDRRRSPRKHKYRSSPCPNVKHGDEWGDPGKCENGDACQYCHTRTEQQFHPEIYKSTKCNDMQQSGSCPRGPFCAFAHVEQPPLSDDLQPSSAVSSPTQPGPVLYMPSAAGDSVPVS
Strand,bound/input enrichment [ratio]
AAUAAGGAAAAGUAUGGCAAACCAAAUAAACGGAAAGGUUUUAAUGAAGGAUUGUGGGAGACCGAUAACAAUCCGAAAGUGAAAUUUUCAAGUCAACAGGCAUCAACUAAACAAUCCAAU,0.133
CUCCAGCUCGUGUAUGAGUUCUUCUUACGUUUCCUUGAGUCUCCUGAUUUCCAGCCAAACACCGCCAAGAAGUACAUCGACCAGAAGUUUGUACUUGCUCUCCUAGACCUAUUUGACAGU,0.426
AGUUCAGAGUCCGGAGCUGCGGUGGUGGCGGCGAAGGCGAGAGUCAUGGCUGGACAAGCUUUCCGGAAGUUUCUUCCGCUCUUUGACAGAGUAUUGGUUGAAAGGAGUGCUGCCGAAACU,0.0984
GCCUCACCGUUAGACCAGAACGGAAGCUUCAAUGUUGUUAUUAAAGAGGAACCUCCCGAUGAUUAUGACUACGAACUUGGUGAGUGCCCAGAAGGGGUCACUGUGAAACAGGAAGAGACA,0.447
AAAACAUGUAAAUCCAGUCUACUCUAUUGUCUUGUUUUGAUUAUACCAUCAGACACAUUGCCGUUGCCCGACGUAGUAUGAAGGCACAGGUGAUGGGGCAGUCCUAAAUUUCUGACUCUU,0.107
GAAGCCUUGAAGAUCUUCCAGAAAAUAAAGGAUGAAAAGAGUCCAGAAUGGUCCAAAUACUCCGGAUUAAUCAAAAAAUUUGUCACUGAUUCCAAUGCAGUGGUUCAAUUGAAAGGACUA,0.192
UUCUUUUCUUUUCUUUUCUUUUCUUUUCUUUUCUUUUCUUUUCUUUUUUCUUUUUUUUUUUUCCGGCAGUGUGUUGCUAAACAGCCCUGGCUGGCCUGGGACUUGCUAUGUAGACCAGGC,4.62
CUGUAAUUUCAAUUUUUUUUUUUUGCUGAAAUACAUUAUAUUGUACGUUUGAGAUAAUUCCCGUACAAAGUAUAAUAAAACUAGAUGUAUAAUAAACCCUUUAAAUCAUUGGUAAGUGUA,2.52
AAUUCCAGUGACAGUGAUUCAUCUUGUGGUUGGACUGUCAUCAGUCAUGAGGGGUCAGAUACCGAAAUGUUGAAUUCUGUGACCCCCACUGACAGCUGUGAGCCCGCCCCAGAAUGUUCA,0.052
CAUAAUUAUGGUGCUCGUCCUCCUCCGACACCUCCGGCUUCCCCUCCUCCAUCAGUCCUUAUCCGCAAAAAUGAAGUAGGCAUAUUUACCACUCCUAAUUUUGAUGAAACUUCCAGUGCU,1.1
UACUUAUGCCAAUAUUGUGAAUAUUCAACAGGACAAAUUGACGAUCUUAAAAUUCAUCCCGAUUUCAAGCAUUCAGCUGACUUGCCUCAUAAAUGUAGUGAGUGCUUGAUGAGGUUUGGG,0.295

# Series 2
# Target: CEBPB, bZIP domain (human)
# Method: DHFR protein complementation
# Sample: yeast
# Setting: single substitutions, most at no-binding floor
# Reference: wild-type JUN-FOS pair
# Direction: higher = stronger binding
# Parent: JUN, bZIP domain (human); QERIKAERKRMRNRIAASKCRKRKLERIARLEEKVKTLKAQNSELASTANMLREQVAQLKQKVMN; partner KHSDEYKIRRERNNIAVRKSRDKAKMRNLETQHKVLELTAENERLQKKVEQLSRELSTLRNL
Substitution,binding fitness
S47K,-1.06 natural log
A49L,-1.34 natural log
T37D,-0.982 natural log
S43G,-1.36 natural log
Q41H,-1.23 natural log
E44V,-1.35 natural log
N42E,-1.55 natural log
E32T,-1.38 natural log
E32H,-1.31 natural log
N42T,-1.43 natural log
E32D,-1.21 natural log
V56K,-1.52 natural log
A40Q,-1.41 natural log
S43P,-1.46 natural log
K36A,-1.2 natural log
A46L,-1.25 natural log
Q55L,-1.39 natural log
M51A,-1.17 natural log
L31Q,-1.31 natural log

# Series 3
# Target: RNA binding protein fox-1 homolog 2, RRM domain, GST-SBP tag (RBFOX2, Homo sapiens, UniProt O43251-10, residues 100-194)
# Method: RNA Bind-n-Seq
# Molecule type: RNA
# Sample: in vitro
# Concentration: 365 nM
# Setting: natural RNA segment, single round, ends assumed
# Reference: no-protein control
# Direction: higher = stronger binding
# Constant ends, left off below: GGGAGUUCUACAGUCCGACGAUC … UGGAAUUCUCGGGUGCCAA
# Residues (chain): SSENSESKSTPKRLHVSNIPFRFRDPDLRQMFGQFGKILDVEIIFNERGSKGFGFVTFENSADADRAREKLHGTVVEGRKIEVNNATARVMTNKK
Strand,RBNS enrichment (R)
CAGCCCAAAAGACGGGAAGAGGAGGCCUUUGGCUGCUUGUGUUGACAGCUUAAAGGGGUCUACACCCUCAACUUGCUUAAGUGCCCUCUGCUGAUAGCCAGGAAGGAGGG,0.487
GAGGACAGGCCACUUGUGCUCAGAGAACCUCACCUCACCGCAGAAGUGGUGCCUCUUCCAGAAGACUCUGGAAGAUUACCUACUUGGGGGUAGGCCUUGGAGGGAAAUCU,0.394
CUCAGCAAUUACUCACGCCGUCACAUGUGCCCACAGUAGCGGGCUCCGCGGCGUGGCUCCUGCUGCCAUCAGCUGCCUUCUCUGCUGAAGUCCAACUCAAGUCGGAGAGA,0.227
CCAGAAGAACCAGCACUUACUUCUUUCUCUAGUUCUUAUGUUCAGAAUGUGGUAUUGGCCCUGGCCUAGCCCCUUCCACUUCCCAUAAUUCUUGCCUCUUUCCAUAAUUC,1.1
GGUGGAGUCUGUGAGGCUAGAAUAUCUCUCAGCAAGAGCAGCAUACCUCCAUGUUGUGAAGGCAUCUGUUCAGUGAAGCACUACGAAAAUUUGAAACCAAGGGACAAGAC,0.895
UCCUAGUGUCAGCUCCCAGGCCGCCUUAGAGCUGCUCAUUCCUGAAUGACUGGCUCCCCUGCCCUUUUAGACAAAGGCUGCUGCUUUCAGCCUUCUCCAAGGGAGAGCCU,0.375
GAUAGCUGUCUGCUCCAGUUUCUGGUCUUUGGUAUACUCAGUGUGGCCCGGUGAUGAAGGCUUUCUACUCCUUAACAGGUACAGUUGGAUCCAUCGCUGAUGGUGUUUCU,0.511
CAGUGCAUUGUCCCGUGGAGGUGUGACACGGGAGACACACGUGUGGAUCAUGUGAUCAUUGUGAACACCUCGUGAGCUUUAAAAUAAAGUCCACCCUGUGGUGUCAUUUC,0.49
GCGUUUAACAAACUAGCAUGAGGCCUUUCAUAUCUAAAUGCUGUGUGAUAGACAAUUUCAGCUAGCCACAUAUUGUAUUAUGAAAUUCAUAAAGAUUUUCAAUCAUUCAA,0.513
CAAGUUACAUGUGAAUUUGUUUGGUGAAGAAGGGAAGCUGGGAUGGUAACAGAGCGUCACCACAUAGGAUGUGCCAUUAUCUAGCUAAAGUCAUUCCUUCCUUCCUUCUG,0.35
CUCUCGGGAAUGCUUUUCCAGCAGGGAGCUCUUCCCCUGAAGGAGACUAGCUUGCCUUGGUUUUGAUGUGUGUGGCCUCAGACGUGAUCAUUUCCCAUCCCGCUGUGUCU,0.971
GCUGUGAUAAAUUUCAAAUUUGCAUAGCUUUUCAAUGUUUUGCUCUGCUCCCGCUCUUGCUUCAGAGUCGGCACACUCACCUGCAUUUGAGUUCUGUCUAUAGCCCAGCA,1.86

# Series 4
# Target: ABI1, truncated, D143A, DHFR fusion (Arabidopsis thaliana)
# Method: DHFR PCA, deep sequencing
# Sample: yeast
# Setting: methotrexate growth selection, single substitutions
# Added: (+)-ABA 2500 µM
# Reference: wild-type fitted maximum
# Direction: higher = stronger binding
# Parent: PYL1, truncated, DHFR fusion (Arabidopsis thaliana); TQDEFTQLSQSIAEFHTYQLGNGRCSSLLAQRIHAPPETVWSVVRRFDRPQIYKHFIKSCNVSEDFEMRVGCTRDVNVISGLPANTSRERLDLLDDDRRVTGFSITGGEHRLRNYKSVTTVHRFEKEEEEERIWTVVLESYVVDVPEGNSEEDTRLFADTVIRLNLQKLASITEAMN; partner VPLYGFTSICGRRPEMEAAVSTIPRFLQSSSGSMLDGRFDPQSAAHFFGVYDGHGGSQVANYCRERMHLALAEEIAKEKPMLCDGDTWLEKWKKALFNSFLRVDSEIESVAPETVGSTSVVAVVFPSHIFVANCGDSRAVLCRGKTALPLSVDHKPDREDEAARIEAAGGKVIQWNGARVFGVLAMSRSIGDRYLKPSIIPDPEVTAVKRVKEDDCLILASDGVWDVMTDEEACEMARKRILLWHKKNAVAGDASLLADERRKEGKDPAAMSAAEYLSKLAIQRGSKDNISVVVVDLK
Substitution,relative binding score [%]
V44L,92.4
E4P,99.2
D96W,67.9
I105E,60.8
R32E,95.4
F124P,95.9
E38V,86.5
T39A,101
K58H,90.8

# Series 5
# Target: Histone acetyltransferase KAT6A, winged helix 1, GST fusion (KAT6A, Homo sapiens, UniProt Q92794, residues 1-85)
# Method: protein binding microarray
# Molecule type: double-stranded DNA, one strand shown
# Sample: in vitro
# Concentration: not given
# Setting: 8-mer, flanks averaged, mean of 2 arrays, mostly near background
# Reference: not given
# Direction: higher = stronger binding
# Construct (chain): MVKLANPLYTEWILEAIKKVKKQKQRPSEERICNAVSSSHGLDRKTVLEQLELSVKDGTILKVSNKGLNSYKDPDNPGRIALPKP
Strand,E-score
AGGCCACC,-0.146
TACTCCTA,-0.128
ACCAAAGT,-0.193
GTTCAATA,-0.135
ACTTACCG,0.289
TGACTAAA,-0.132
CATGGCTA,-0.15
CTTACGCA,0.0543
ACAGGTCT,-0.105
AAAGCAGT,-0.15
AGACTGTC,-0.0471
AAGTCTTG,-0.00475
CGGAGATA,0.177
CTGTAATA,0.0608
CTTTAGGC,0.0491
GCACGCGC,0.364
ACCCGCGG,0.433
GCATAACA,-0.192

# Series 6
# Target: CCNE1, cyclin fold, Cln2 fusion (human)
# Method: yeast growth competition, sequencing
# Sample: yeast
# Setting: strong parent motif
# Reference: not given
# Direction: higher = stronger binding
# Parent: BRCA2 docking peptide (human); PSIKRNLLNEFDR; partner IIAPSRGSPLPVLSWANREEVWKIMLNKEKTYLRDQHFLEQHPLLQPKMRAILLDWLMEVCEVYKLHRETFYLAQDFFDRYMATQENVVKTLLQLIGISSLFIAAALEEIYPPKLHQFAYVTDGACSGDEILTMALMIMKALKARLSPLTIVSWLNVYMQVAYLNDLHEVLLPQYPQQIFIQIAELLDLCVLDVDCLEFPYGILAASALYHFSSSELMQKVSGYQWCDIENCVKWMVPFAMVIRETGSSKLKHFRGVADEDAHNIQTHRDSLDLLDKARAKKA
Substitution,normalised enrichment score
PSIKRNELNEFDR [L7E],0.264
PSIKRNHLNEFDR [L7H],-0.345
PSIKRNLLNEFDA [R13A],2.93
PSIKRNLLDEFDR [N9D],2.37
PSIKRNLLNEFVR [D12V],1.57
PSGKRNLLNEFDR [I3G],1.72
PSIKRNLLNEFDL [R13L],1.68
PSIKRNLLNELDR [F11L],0.598
PSIKRDLLNEFDR [N6D],0.863
PSPKRNLLNEFDR [I3P],1.93
PSIKRNLLNEFNR [D12N],1.8
PSIKINLLNEFDR [R5I],0.721
PSIKRGLLNEFDR [N6G],-0.369
HSIKRNLLNEFDR [P1H],2.54
PSIRRNLLNEFDR [K4R],0.999
PRIKRNLLNEFDR [S2R],1.29
FSIKRNLLNEFDR [P1F],1.16
PSIKRNLLNDFDR [E10D],3.3
PSIKRNLLIEFDR [N9I],1.91
PSIKRCLLNEFDR [N6C],-0.333
PSIKRSLLNEFDR [N6S],0.712
PSIKRNNLNEFDR [L7N],0.0464
PLIKRNLLNEFDR [S2L],2.33
ESIKRNLLNEFDR [P1E],2.71
PDIKRNLLNEFDR [S2D],1.4

# Further values, each from its own experiment
Substance,target,test,test system,setting,scale,measurement,result
"PhoQ, residues 284 288 289 292 302 303 SSTMSV","PhoP, residues 12 14 15 18 19 VQGLL (Escherichia coli, UniProt P23836)","Sort-seq, item: YFP reporter",E. coli,"PhoQ-PhoP variant library, added: 10 µM Mg2+","reference: high Mg2+ state, higher = stronger signaling",fold induction,4.09

# Excerpt of the above (series 5):
Strand,E-score
AGGCCACC,-0.146
TACTCCTA,-0.128
ACCAAAGT,-0.193
GTTCAATA,-0.135
ACTTACCG,0.289
TGACTAAA,-0.132
CATGGCTA,-0.15
CTTACGCA,0.0543
ACAGGTCT,-0.105
AAAGCAGT,-0.15
AGACTGTC,-0.0471
